Results of several laboratories.
Protocols differ between the studies behind these lines. Values joined by “and” are separate records of one study, mostly repeats; a detail may differ. Numbers after ± are the reported error.

Compound | target or system | test | test system | setting | scale | quantity | result
Nc1ccc([As]=O)cc1 (stereo not shown) | NCM460 | cell viability, MTS |  |  |  | IC50 | 3670 ± 100 nM
CC(=NNC(=S)N1CCC1)c1ccccn1 |  |  | mouse, BoNT/A1 intoxication | ip, 10 mg/kg, added: botulinum neurotoxin A1 |  | median survival time extension | ~1.2 h
O=C(NC1CCN(c2ncnc3[nH]cnc23)CC1)c1cccc(S(=O)(=O)Nc2ccc(Cl)cc2)c1 | SARS-CoV-2 |  | Wuhan-Hu-1 | 2.469 µM | reference: untreated infected cells | relative infection | 36.8%
CCN(CC)Cc1onc(-c2cccc(Cl)c2)c1-c1ccnc(N[C@@H]2CCN(C(=O)c3ccn(C)n3)C2)n1 | Plasmodium falciparum | parasite growth | 3D7 A10 | 72 h, asexual blood stage |  | EC50 | 4790 ± 210 nM
COc1cccc2c1CCCC2CCCN1CCN(C2CCCCC2)CC1 (stereo not shown) | hippocampal neurons |  |  | concentration not given, added: RML PrPSc |  | dendritic spine density | 0.86 ± 0.03 spines/µm
O=C(NC1CCN(c2ncnc3[nH]cnc23)CC1)c1cccc(NS(=O)(=O)c2ccc(Cl)cc2)c1 | SARS-CoV-2 |  | Wuhan-Hu-1 | 7.407 µM | reference: untreated infected cells | relative infection | 27.4%
CC[C@H](C)[C@H](NC(=O)[C@H](C)NC(=O)[C@H](CCC(=O)O)NC(=O)[C@H](CCC(=O)O)NC(=O)[C@H](CC(C)C)NC(=O)[C@H](CCCCN)NC(=O)[C@H](CCCCN)NC(=O)[C@H](CCSC)NC(=O)[C@H](CCC(=O)O)NC(=O)[C@H](Cc1ccc(O)cc1)NC(=O)[C@H](CCC(=O)O)NC(=O)[C@H](CC(C)C)NC(=O)[C@H](CC(=O)O)NC(=O)[C@H](CC(C)C)NC(=O)[C@H](Cc1ccccc1)NC(=O)[C@H](Cc1ccc(O)cc1)NC(=O)[C@@H](NC(=O)[C@H](CC(N)=O)NC(=O)[C@@H](NC(=O)[C@H](CCC(N)=O)NC(=O)[C@H](CC(=O)O)NC(=O)[C@H](CC(C)C)NC(=O)[C@@H](N)CO)[C@@H](C)CC)C(C)C)C(=O)N[C@@H](CCCCN)C(=O)N[C@@H](CCCCN)C(=O)N[C@@H](CC(C)C)C(=O)N[C@@H](CCC(=O)O)C(=O)N[C@@H](CCC(=O)O)C(=O)N[C@@H](C)C(=O)N[C@@H](Cc1ccc(O)cc1)C(=O)N[C@H](C(=O)N[C@@H](CC(=O)O)C(=O)N[C@@H](CC(C)C)C(=O)N[C@@H](CCCCN)C(=O)N[C@@H](CCC(=O)O)C(=O)N[C@@H](CC(C)C)C(=O)O)[C@@H](C)CC | SARS-CoV-2 Delta pseudovirus | pseudovirus infection, inhibitor, luciferase | Caco-2 | 24 h, dual mutations |  | IC50 | 641 nM
O=C(NC1CCN(c2ncnc3[nH]cnc23)CC1)c1cccc(NS(=O)(=O)c2ccc([N+](=O)[O-])cc2)c1 | SARS-CoV-2 |  | Wuhan-Hu-1 | 200 µM | reference: untreated infected cells | relative infection | 7.62%
CC[C@H](C)[C@H](NC(=O)[C@H](C)NC(=O)[C@H](CCC(=O)O)NC(=O)[C@H](CCC(=O)O)NC(=O)[C@H](CC(C)C)NC(=O)[C@H](CCCCN)NC(=O)[C@H](CCCCN)NC(=O)[C@H](CCSC)NC(=O)[C@H](CCC(=O)O)NC(=O)[C@H](Cc1ccc(O)cc1)NC(=O)[C@H](CCC(=O)O)NC(=O)[C@H](CC(C)C)NC(=O)[C@H](CC(=O)O)NC(=O)[C@H](CC(C)C)NC(=O)[C@H](Cc1ccccc1)NC(=O)[C@H](Cc1ccc(O)cc1)NC(=O)[C@@H](NC(=O)[C@H](CC(N)=O)NC(=O)[C@@H](NC(=O)[C@H](CCC(N)=O)NC(=O)[C@H](CC(=O)O)NC(=O)[C@H](CC(C)C)NC(=O)[C@@H](N)CO)[C@@H](C)CC)C(C)C)C(=O)N[C@@H](CCCCN)C(=O)N[C@@H](CCCCN)C(=O)N[C@@H](CC(C)C)C(=O)N[C@@H](CCC(=O)O)C(=O)N[C@@H](CCC(=O)O)C(=O)N[C@@H](CO)C(=O)N[C@@H](Cc1ccc(O)cc1)C(=O)N[C@H](C(=O)N[C@@H](CC(=O)O)C(=O)N[C@@H](CC(C)C)C(=O)N[C@@H](CCCCN)C(=O)N[C@@H](CCC(=O)O)C(=O)N[C@@H](CC(C)C)C(=O)O)[C@@H](C)CC | SARS-CoV-2 EG.5.1 pseudovirus | pseudovirus infection, inhibitor, luciferase | Caco-2 | 24 h |  | IC50 | 171 nM
CC#Cc1ccc2c(=O)[nH]nc(Cc3ccc(F)c(C(=O)N4CCN(c5ccc(C#N)cn5)CC4)c3)c2c1 | CT26 | western blot, refers to: PARP7 protein |  | 0.3 µM |  | time to maximum | ~16 h
CC[C@H](C)[C@H](NC(=O)[C@H](C)NC(=O)[C@H](CCC(=O)O)NC(=O)[C@H](CCC(=O)O)NC(=O)[C@H](CC(C)C)NC(=O)[C@H](CCCCN)NC(=O)[C@H](CCCCN)NC(=O)[C@H](CCSC)NC(=O)[C@H](CCC(=O)O)NC(=O)[C@H](Cc1ccc(O)cc1)NC(=O)[C@H](CCC(=O)O)NC(=O)[C@H](CC(C)C)NC(=O)[C@H](CC(=O)O)NC(=O)[C@H](CC(C)C)NC(=O)[C@H](Cc1ccccc1)NC(=O)[C@H](Cc1ccccc1)NC(=O)[C@@H](NC(=O)[C@H](CC(N)=O)NC(=O)[C@@H](NC(=O)[C@H](CCC(N)=O)NC(=O)[C@H](CC(=O)O)NC(=O)[C@H](CC(C)C)NC(=O)[C@@H](N)CO)[C@@H](C)CC)C(C)C)C(=O)N[C@@H](CCCCN)C(=O)N[C@@H](CCCCN)C(=O)N[C@@H](CC(C)C)C(=O)N[C@@H](CCC(=O)O)C(=O)N[C@@H](CCC(=O)O)C(=O)N[C@@H](C)C(=O)N[C@@H](Cc1ccc(O)cc1)C(=O)N[C@H](C(=O)N[C@@H](CC(=O)O)C(=O)N[C@@H](CC(C)C)C(=O)N[C@@H](CCCCN)C(=O)N[C@@H](CCC(=O)O)C(=O)N[C@@H](CC(C)C)C(=O)O)[C@@H](C)CC | SARS-CoV-2 Gamma pseudovirus | pseudovirus infection, inhibitor, luciferase | Caco-2 | 24 h, dual mutations |  | IC50 | 550 nM
Cc1ccc(S(=O)(=O)Nc2cccc(C(=O)NC3CCN(c4ncnc5[nH]cnc45)CC3)c2)cc1 | monkeypox virus E1/E12 |  |  | 0.7812 µM |  | inhibition | 14.4% and 13.9%
CC[C@H](C)[C@H](NC(=O)[C@H](C)NC(=O)[C@H](CCC(=O)O)NC(=O)[C@H](CCC(=O)O)NC(=O)[C@H](CC(C)C)NC(=O)[C@H](CCCCN)NC(=O)[C@H](CCCCN)NC(=O)[C@H](CCSC)NC(=O)[C@H](CCC(=O)O)NC(=O)[C@H](Cc1ccc(O)cc1)NC(=O)[C@H](CCC(=O)O)NC(=O)[C@H](CC(C)C)NC(=O)[C@H](CC(=O)O)NC(=O)[C@H](CC(C)C)NC(=O)[C@H](Cc1ccccc1)NC(=O)[C@H](Cc1ccc(O)cc1)NC(=O)[C@@H](NC(=O)[C@H](CC(N)=O)NC(=O)[C@@H](NC(=O)[C@H](CCC(N)=O)NC(=O)[C@H](CC(=O)O)NC(=O)[C@H](CC(C)C)NC(=O)[C@@H](N)CO)[C@@H](C)CC)C(C)C)C(=O)N[C@@H](CCCCN)C(=O)N[C@@H](CCCCN)C(=O)N[C@@H](CC(C)C)C(=O)N[C@@H](CCC(=O)O)C(=O)N[C@@H](CCC(=O)O)C(=O)N[C@H](C(=O)N[C@@H](Cc1ccc(O)cc1)C(=O)N[C@H](C(=O)N[C@@H](CC(=O)O)C(=O)N[C@@H](CC(C)C)C(=O)N[C@@H](CCCCN)C(=O)N[C@@H](CCC(=O)O)C(=O)N[C@@H](CC(C)C)C(=O)O)[C@@H](C)CC)[C@@H](C)O | SARS-CoV-2 JN.1 pseudovirus | pseudovirus infection, inhibitor, luciferase | Caco-2 | 24 h, dual mutations |  | IC50 | 71.4 nM
CC(C)[C@H]1CC[C@@H](N2CCC3(CC2)C(=O)NCN3c2ccccc2)CC1 |  | twitch contraction | mouse, mouse vas deferens | dose not given, unit not given | reference: compound over N/OFQ Emax | intrinsic activity | > 1
COc1ccc(S(=O)(=O)Nc2cccc(C(=O)NC3CCN(c4ncnc5[nH]cnc45)CC3)c2)cc1 | SARS-CoV-2 |  | Wuhan-Hu-1 | 0.03048 µM | reference: untreated infected cells | relative infection | 78.1%
NCc1ccc(-c2ncc(OCC3CCNCC3)nc2-c2ccc(-c3ccoc3)cc2)cc1 | Zika virus |  | ZIKV-FLR, C57BL/6 mice, interferon receptor knockout, brain | intraperitoneal, 15 mg/kg every 12 h, 24 h, started 1 h before infection |  | reduction in viral RNA | 98%

Some of these lines once more:
Compound | target or system | test | test system | setting | scale | quantity | result
O=C(NC1CCN(c2ncnc3[nH]cnc23)CC1)c1cccc(S(=O)(=O)Nc2ccc(Cl)cc2)c1 | SARS-CoV-2 |  | Wuhan-Hu-1 | 2.469 µM | reference: untreated infected cells | relative infection | 36.8%
CCN(CC)Cc1onc(-c2cccc(Cl)c2)c1-c1ccnc(N[C@@H]2CCN(C(=O)c3ccn(C)n3)C2)n1 | Plasmodium falciparum | parasite growth | 3D7 A10 | 72 h, asexual blood stage |  | EC50 | 4790 ± 210 nM
COc1cccc2c1CCCC2CCCN1CCN(C2CCCCC2)CC1 (stereo not shown) | hippocampal neurons |  |  | concentration not given, added: RML PrPSc |  | dendritic spine density | 0.86 ± 0.03 spines/µm
